Results pooled from the literature.
Every numbered part comes from another study and shows a few of its results, in no order. Substitutions count along the parent as printed.

Series 1 — target: CCNB2, cyclin fold, Cln2 fusion (human); technique: yeast growth competition, sequencing; sample: yeast; setting: strong parent motif; reference: not given; direction: higher = stronger binding; quantity: normalised enrichment score
Parent: MICAL3 docking peptide (human); LQLRRQLSFSEDS; partner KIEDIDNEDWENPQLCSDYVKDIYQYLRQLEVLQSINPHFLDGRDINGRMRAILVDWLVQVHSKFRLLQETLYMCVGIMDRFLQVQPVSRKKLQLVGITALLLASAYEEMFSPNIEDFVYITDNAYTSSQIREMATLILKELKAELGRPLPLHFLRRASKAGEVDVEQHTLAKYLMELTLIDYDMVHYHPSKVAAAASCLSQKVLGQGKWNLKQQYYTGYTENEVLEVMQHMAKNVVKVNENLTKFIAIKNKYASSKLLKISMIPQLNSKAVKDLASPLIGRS
L7Y: 0.263
E11S: 2.75
R5K: 1.59
D12N: 2.48
D12P: 2.9
L3T: 1.41
R4V: 2.16
S8Y: 0.946
F9H: -0.156
S10C: 1.85
E11D: 3.55
S8G: 0.328
L3P: 1.28
S8F: 1.09
R4F: 1.41
R5D: 0.0536
F9K: 0.471
R5G: 0.0483
S10I: 1.04
D12Y: 2.26
Q6S: 2.4
D12H: 2.29
L7E: 0.326
Q2W: 1.24
S8D: 2.76

Series 2 — technique: competition protein-binding microarray; molecule type: double-stranded DNA, one strand shown; sample: in vitro; concentration: 2 µM; added: Pho4 competitor, 0.05 µM; direction: higher = stronger binding; quantity: fluorescence intensity; shared flanks, not repeated: … GTCTTGATTCGCTTGACGCTGCTG
Target: Centromere-binding protein 1, full length, His-tagged (CBF1, Saccharomyces cerevisiae, UniProt P17106, residues 1-351)
Chain of UniProt P17106 (whole entry, looked up): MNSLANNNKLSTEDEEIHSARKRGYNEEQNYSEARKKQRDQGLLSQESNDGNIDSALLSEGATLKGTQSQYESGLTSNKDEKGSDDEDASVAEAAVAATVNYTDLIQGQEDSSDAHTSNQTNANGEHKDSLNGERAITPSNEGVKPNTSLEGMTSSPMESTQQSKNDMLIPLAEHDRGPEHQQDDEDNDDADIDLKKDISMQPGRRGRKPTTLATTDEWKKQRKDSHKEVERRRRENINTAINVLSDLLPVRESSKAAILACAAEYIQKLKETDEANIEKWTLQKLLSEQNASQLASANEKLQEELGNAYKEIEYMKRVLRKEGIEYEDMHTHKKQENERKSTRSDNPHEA
Setting: whole 60-bp probe, lowest competitor level
ACCGCAGCACCGTTTCACATGTCCGTCTCTTTTGTT: 96 a.u.
TTGACAGTCCCTGGACATGTGGCCAGCTTTACCACA: 114 a.u.
CAACCAGTTGCGCAGGGCGTGCCAGATGAACGCTCT: 72.7 a.u.
ACTATAAAGAACTGTCACATGACGATACATCCAAGC: 2150 a.u.
TGCGCAACAACTTTTCACGTGTTGTTATGTCTAGAA: 1080 a.u.
AATCCAATATTGAAAAACGTGAGTACGCAGAGGAGA: 226 a.u.
CTTCTGTAAATTTTTCACGTGTTGTGAAGCGCCCCG: 1030 a.u.
AAACCCGGGCTGAAATCCGTGCAATGCATCAAATTT: 68.7 a.u.
TCCAGAAGAACCCGTCACGTTTTGGATTGGTTTTTG: 503 a.u.
TAGTGTTAAAGCAACACCGTGATGGCCTTGGTGGTG: 83 a.u.
GTTCCATTCACCGTTGTAATGTGCAGCCCCGTCCTA: 64.8 a.u.
CTTTCCCGATCTTGCAAGGTGGGTGTAGCACATTTG: 72.6 a.u.
CACTGTAGATGAACACACACTAAACGACAATAAGAC: 77.4 a.u.
AAATGGAACGATAGGAACGTGTAACCTACCGCTTCT: 72.9 a.u.
TGCGCAACAACTTGGCCTGTGGGTGTATGTCTAGAA: 59.5 a.u.
AAATCTGATTCTCACCACGTGCAAAAAAGATTGTAC: 2250 a.u.
AGCTCTAACAAAGTCAACGTGTAAGGCAGCAACTGG: 91 a.u.
CGGGGTTAAGTTTGTCACCCTACTTGCTTGCAGCAG: 75.1 a.u.
TGTTACTCTAAAGGACACGGGAGAAAAGGTCGCCCC: 78.2 a.u.
CGCGCCACTGCTACTCATGTGCTGCAAACTAACAGT: 93.2 a.u.
CGTCCTAGCGATTGAGGTGTGGGTGCCATGAGGAAG: 82.8 a.u.
CAGACTACTAACCATCACGTGATGGTTCTTTTCACT: 11300 a.u.
CTGTGTCCTGTGGTAGACCCACTTGTTTTACCGCAG: 84.5 a.u.
AAATTACTAAGTTGTCACTACACTTACCCCGTATGA: 75.5 a.u.
TGTGCAGACTTCCATCACGTGAACCACAGTAACCTA: 4030 a.u.

Series 3 — technique: Spec-seq; molecule type: double-stranded DNA, one strand shown; sample: in vitro; concentration: not given; setting: whole probe, mean of replicates; reference: not given; direction: lower = stronger binding; quantity: relative binding energy; shared flanks, not repeated: GAGTCGTCTCGTCAGCAC … CCGTAGAGCACTCAGGTC
Target: Transcription factor SOX-2, HMG box (Sox2, Mus musculus, UniProt P48432, residues 41-119)
Chain of UniProt P48432 (41-119, looked up): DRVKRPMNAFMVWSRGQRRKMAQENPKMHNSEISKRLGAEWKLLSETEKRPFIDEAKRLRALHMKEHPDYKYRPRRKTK
CATGCCC: 0.709 ln ratio
GCCAGTT: 0.734 ln ratio
CATCACC: 1.05 ln ratio
CTATGTT: -0.347 ln ratio
CTCAGTT: 0.224 ln ratio
TCTTGTT: -1.11 ln ratio
CTTTGTT: -2.56 ln ratio
CATCCGA: 1.06 ln ratio
TGCTGTT: 0.0622 ln ratio
CATTCTC: -1.14 ln ratio
CATAGAC: -0.759 ln ratio
AAAGGTT: -1.67 ln ratio
CATATCG: 0.293 ln ratio
TCTCGTT: 0.769 ln ratio
TGTAGTT: -0.0698 ln ratio
CATGTTA: 0.397 ln ratio
GAACGTT: 1.15 ln ratio
CATACAT: -1.14 ln ratio
CATTCCC: 0.606 ln ratio

Series 4 — target: NFE2L2, bZIP domain (human); technique: DHFR protein complementation; sample: yeast; reference: wild-type JUN-FOS pair; direction: higher = stronger binding; quantity: binding fitness
Setting: single substitutions, most at no-binding floor
Parent: JUN, bZIP domain (human); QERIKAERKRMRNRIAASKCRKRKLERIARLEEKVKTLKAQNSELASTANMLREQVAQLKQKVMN; partner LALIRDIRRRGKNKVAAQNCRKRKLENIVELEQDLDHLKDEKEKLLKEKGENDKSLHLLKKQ
V35Y: -1.5 natural log
A29G: -1.4 natural log
T48C: -1.29 natural log
E44Y: -1.43 natural log
I28F: -1.5 natural log
K36F: -1.45 natural log
N42W: -1.55 natural log
S43P: -1.51 natural log
E33C: -1.43 natural log
T48S: -1.31 natural log
S43N: -1.1 natural log
V35R: -1.48 natural log
K39I: -1.22 natural log
N42C: -1.56 natural log

Series 5 — technique: protein binding microarray; molecule type: double-stranded DNA, one strand shown; sample: in vitro; concentration: not given; reference: not given; direction: higher = stronger binding; quantity: E-score
Target: Histone acetyltransferase KAT6A, winged helix 2, GST fusion (KAT6A, Homo sapiens, UniProt Q92794, residues 85-181)
Setting: 8-mer, flanks averaged, mean of 2 arrays, mostly near background
Target sequence (chain): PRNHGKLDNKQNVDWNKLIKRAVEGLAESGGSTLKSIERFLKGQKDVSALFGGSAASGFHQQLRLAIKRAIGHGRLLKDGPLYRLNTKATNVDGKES
AGGGAATC: -0.053
CCAATAAG: 0.0167
AGGGATCG: 0.0381
CTCGTCTA: -0.0862
CAGGCAAA: -0.018
AGGATTTG: 0.00129
CTCACCTA: -0.0826
CGGTCCTC: 0.0592
CTTAGAAA: 0.102
AAATGCTA: 0.147
AAGACGGG: 0.0508
AGAACCCG: -0.128
CATGTTAG: -0.104
ATCGGTTG: -0.0833
TAACATCA: 0.0677
AATGGTAG: -0.00458
CTTGATAC: -0.0353
CCGGGCTA: 0.0194

Series 6 — technique: RNAcompete; molecule type: RNA; sample: in vitro; concentration: 20 nM; setting: 7-mer, probes averaged, single round; reference: mean of 7-mers; direction: higher = stronger binding; quantity: 7-mer Z-score
Target: PABPC1L2, full length, GST fusion (mouse, UniProt A0ABA7IW68)
Residues (chain): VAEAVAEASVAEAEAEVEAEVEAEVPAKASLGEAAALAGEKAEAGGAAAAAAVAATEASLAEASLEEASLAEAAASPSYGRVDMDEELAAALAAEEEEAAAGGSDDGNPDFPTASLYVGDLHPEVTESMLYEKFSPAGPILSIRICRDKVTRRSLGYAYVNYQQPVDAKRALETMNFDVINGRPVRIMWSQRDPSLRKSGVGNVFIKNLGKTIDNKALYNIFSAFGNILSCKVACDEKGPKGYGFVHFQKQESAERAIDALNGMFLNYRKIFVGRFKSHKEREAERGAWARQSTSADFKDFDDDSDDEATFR
UAACUAG: -0.0681
CACUUGA: -0.0736
CACGCAG: 0.0207
AACAUCA: 0.561
AACCGCA: 0.0678
UCCGUCC: -0.505
UCCCGUU: -0.501
UUGAGUC: -0.362
GCAAAGC: -0.121
GUCUCUU: -0.418
CGGUAAG: -0.168

Series 7 — technique: DHFR PCA, deep sequencing; sample: yeast; added: (+)-ABA 1.4 µM; reference: wild-type fitted maximum; direction: higher = stronger binding; quantity: relative binding score
Target: ABI1, truncated, D143A, DHFR fusion (Arabidopsis thaliana)
Setting: methotrexate growth selection, single substitutions
Parent: PYL1, truncated, DHFR fusion (Arabidopsis thaliana); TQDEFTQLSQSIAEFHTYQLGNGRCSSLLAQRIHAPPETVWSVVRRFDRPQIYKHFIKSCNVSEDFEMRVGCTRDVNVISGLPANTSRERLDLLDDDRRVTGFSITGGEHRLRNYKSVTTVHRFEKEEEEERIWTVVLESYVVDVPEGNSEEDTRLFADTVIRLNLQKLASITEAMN
S150L: -2.43%
G108F: -9.84%
E38L: 15.2%
D144R: -12.2%
V143S: -8.11%
A13K: 53.1%
R98I: 24.8%
T73P: -4.82%
V62H: -3.84%
Q51W: 1.72%
I133C: 74.6%
I12S: -4.66%
E130S: 68.3%
T135I: -6.21%

Excerpt of the above (series 4):
K36F: -1.45 natural log
E44Y: -1.43 natural log
S43N: -1.1 natural log
V35Y: -1.5 natural log
T48S: -1.31 natural log
V35R: -1.48 natural log
T48C: -1.29 natural log
S43P: -1.51 natural log
A29G: -1.4 natural log
N42W: -1.55 natural log
K39I: -1.22 natural log
